{"data": "Experimental data pooled from the literature", "note": "Every numbered part comes from another study and shows a few of its results, in no order. “And” joins repeats or separate records; there may be more than shown. Positions count from the first letter of the parent shown.", "sequence of UniProt P00519 (whole entry, unmodified, looked up)": "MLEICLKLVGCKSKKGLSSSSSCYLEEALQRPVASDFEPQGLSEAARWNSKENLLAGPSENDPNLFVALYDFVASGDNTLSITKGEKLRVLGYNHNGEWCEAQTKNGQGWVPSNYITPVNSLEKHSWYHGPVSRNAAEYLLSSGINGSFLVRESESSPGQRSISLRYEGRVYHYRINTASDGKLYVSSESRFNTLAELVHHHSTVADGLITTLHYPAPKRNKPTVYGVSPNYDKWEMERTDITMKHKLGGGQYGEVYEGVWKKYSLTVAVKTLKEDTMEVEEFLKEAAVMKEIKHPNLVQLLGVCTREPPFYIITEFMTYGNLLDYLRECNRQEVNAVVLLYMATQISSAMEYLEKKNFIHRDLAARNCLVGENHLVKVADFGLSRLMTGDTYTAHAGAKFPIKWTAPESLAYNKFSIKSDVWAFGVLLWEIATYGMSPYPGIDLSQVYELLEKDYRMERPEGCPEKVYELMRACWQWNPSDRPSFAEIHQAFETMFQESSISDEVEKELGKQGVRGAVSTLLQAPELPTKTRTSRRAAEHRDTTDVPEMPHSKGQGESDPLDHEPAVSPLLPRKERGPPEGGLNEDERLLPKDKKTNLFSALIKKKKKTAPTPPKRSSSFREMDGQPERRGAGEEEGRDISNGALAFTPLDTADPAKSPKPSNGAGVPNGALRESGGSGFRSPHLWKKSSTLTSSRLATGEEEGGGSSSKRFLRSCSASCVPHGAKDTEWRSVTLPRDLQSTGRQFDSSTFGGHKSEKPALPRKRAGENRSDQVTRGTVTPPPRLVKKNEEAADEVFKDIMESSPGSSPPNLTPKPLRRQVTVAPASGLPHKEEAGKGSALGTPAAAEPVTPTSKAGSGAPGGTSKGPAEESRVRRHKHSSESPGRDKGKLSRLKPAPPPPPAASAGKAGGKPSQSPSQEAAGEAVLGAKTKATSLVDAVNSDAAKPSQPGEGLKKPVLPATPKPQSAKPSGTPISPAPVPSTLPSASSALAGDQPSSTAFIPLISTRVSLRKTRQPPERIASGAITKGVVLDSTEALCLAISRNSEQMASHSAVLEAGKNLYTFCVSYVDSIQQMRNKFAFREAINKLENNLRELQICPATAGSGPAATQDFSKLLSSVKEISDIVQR"}
{"data": "Sample 1", "target": "PABPC1L2, full length, GST fusion (mouse, UniProt A0ABA7IW68)", "method": "RNAcompete", "form": "RNA", "matrix": "in vitro", "concentration": "20 nM", "setting": "7-mer, probes averaged, single round", "reference": "mean of 7-mers", "reading": "higher = stronger binding", "Target sequence (chain)": "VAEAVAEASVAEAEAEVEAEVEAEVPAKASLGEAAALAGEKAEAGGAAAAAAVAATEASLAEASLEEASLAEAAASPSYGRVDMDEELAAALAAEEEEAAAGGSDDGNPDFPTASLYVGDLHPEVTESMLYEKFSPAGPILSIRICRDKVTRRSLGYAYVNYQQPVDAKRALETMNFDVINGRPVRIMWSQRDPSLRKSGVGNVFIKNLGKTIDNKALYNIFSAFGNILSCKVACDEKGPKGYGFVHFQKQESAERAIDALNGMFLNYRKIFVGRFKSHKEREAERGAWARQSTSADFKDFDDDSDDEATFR"}
{"Oligonucleotide": "CAAGCUA", "7-mer Z-score": -0.142}
{"Oligonucleotide": "UGACCCG", "7-mer Z-score": -0.304}
{"Oligonucleotide": "UUCUGCC", "7-mer Z-score": -0.217}
{"Oligonucleotide": "CGACCCG", "7-mer Z-score": -0.219}
{"Oligonucleotide": "GACCUUC", "7-mer Z-score": -0.34}
{"Oligonucleotide": "CCCACUC", "7-mer Z-score": -0.423}
{"Oligonucleotide": "AUGGUCG", "7-mer Z-score": -0.0464}
{"Oligonucleotide": "UCUGCAG", "7-mer Z-score": -0.255}
{"data": "Sample 2", "target": "CEBPD, bZIP domain (human)", "method": "DHFR protein complementation", "matrix": "yeast", "setting": "single substitutions, most at no-binding floor", "reference": "wild-type JUN-FOS pair", "reading": "higher = stronger binding", "parent": "JUN, bZIP domain (human); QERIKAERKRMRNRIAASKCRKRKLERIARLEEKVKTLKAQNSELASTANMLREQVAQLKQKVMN; partner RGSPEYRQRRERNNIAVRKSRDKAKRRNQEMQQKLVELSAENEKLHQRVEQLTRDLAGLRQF"}
{"Change": "L31M", "binding fitness [natural log]": -1.33}
{"Change": "L38N", "binding fitness [natural log]": -1.49}
{"Change": "V56R", "binding fitness [natural log]": -1.49}
{"Change": "Q41V", "binding fitness [natural log]": -1.43}
{"Change": "L45S", "binding fitness [natural log]": -1.44}
{"Change": "L52A", "binding fitness [natural log]": -1.42}
{"Change": "I28G", "binding fitness [natural log]": -1.3}
{"Change": "E44Q", "binding fitness [natural log]": -1.43}
{"data": "Further values, each from its own experiment"}
{"SMILES": "CC[C@@H]1C(=O)OC[C@@H]1Cc1cncn1C.Cl", "tested on": "Sarcocystis neurona", "assay": "parasite growth", "conditions": "concentration not given, first screen", "scale": "reference: untreated", "quantity": "log2 fold change", "value": 0.18}
{"SMILES": "c1ccc(Oc2ccc(Nc3c4c(nc5ccccc35)CCC4)cc2)cc1", "tested on": "Leishmania donovani", "assay": "parasite killing", "system": "DD8, intracellular amastigotes", "conditions": "20 µM, 24 h", "quantity": "inhibition", "value": "105% and 100%"}
{"SMILES": "N=c1n(CCN2CCCCC2)c2ccccc2n1CC(O)COc1ccccc1 (stereo not drawn)", "system": "human, microsomes or S9", "conditions": "2 µM, 0.5 h", "quantity": "remaining compound", "value": "7.14%"}
{"SMILES": "COc1ccc2c(c1)O[C@H](c1ccc(OC)c(OC)c1)C[C@@H]2NC(=O)C1(c2ccc3c(c2)OC(F)(F)O3)CC1 (single isomer, unassigned)", "tested on": "ABL1 (Homo sapiens, UniProt P00519, F317I)", "assay": "KINOMEscan", "conditions": "1 µM, F317I mutant, phosphorylated", "scale": "reference: control", "quantity": "remaining binding", "value": "78%"}
{"SMILES": "CC(C)n1cnc(-c2ccc(F)cc2)c1-c1ncc(C(=O)Nc2ccc(N3CCN(C)CC3)cc2)[nH]1", "assay": "phase 2a trial", "system": "patients with idiopathic pulmonary fibrosis", "conditions": "30 mg once daily, free thyroxine decreased, grade 2", "quantity": "patients with TEAE", "value": "0%"}
{"note": "A few entries again (further values, each from its own experiment):"}
{"SMILES": "c1ccc(Oc2ccc(Nc3c4c(nc5ccccc35)CCC4)cc2)cc1", "tested on": "Leishmania donovani", "assay": "parasite killing", "system": "DD8, intracellular amastigotes", "conditions": "20 µM, 24 h", "quantity": "inhibition", "value": "105% and 100%"}
{"SMILES": "COc1ccc2c(c1)O[C@H](c1ccc(OC)c(OC)c1)C[C@@H]2NC(=O)C1(c2ccc3c(c2)OC(F)(F)O3)CC1 (single isomer, unassigned)", "tested on": "ABL1 (Homo sapiens, UniProt P00519, F317I)", "assay": "KINOMEscan", "conditions": "1 µM, F317I mutant, phosphorylated", "scale": "reference: control", "quantity": "remaining binding", "value": "78%"}
{"SMILES": "N=c1n(CCN2CCCCC2)c2ccccc2n1CC(O)COc1ccccc1 (stereo not drawn)", "system": "human, microsomes or S9", "conditions": "2 µM, 0.5 h", "quantity": "remaining compound", "value": "7.14%"}
